Measurements from different studies.
Protocols differ between the studies behind these lines.
Organism: Human immunodeficiency virus 1

Structure (SMILES)	read-out	mode	technique	cell line	strain	time	IC50
Cn1cc(-c2ccccc2)c2ccc(-c3ccsc3)nc21	cell growth or viability		MTT	TZM-bl		48 h	> 200 µM
O=C(O)c1cc(O)c(O)c(O)c1	viral replication			TZM-bl	BAL	48 h	6.08 µM
COc1ccccc1NC(=O)c1ccccc1OCc1ccc([N+](=O)[O-])cc1	viral replication			MT4		7 days	> 100 µM
Cn1cc(-c2ccccc2)c2ccc(Cl)nc21	cell growth or viability		MTT	TZM-bl		48 h	17.5 µM
CC(C)(N)C(NC(=O)c1ccc(-c2ccc3c(c2)OCO3)[nH]1)c1ncc(CO)s1 (stereo not shown)	viral replication		ELISA	MT2			4.3 µM
Cc1nnc(C(=O)NC(C)(C)c2nc(C(=O)NCc3ccc(F)cc3)c(O)c(=O)n2C)o1	cell growth or viability		MTT	TZM-bl		48 h	> 200 µM
NCC(NC(=O)c1ccc(-c2ccc3c(c2)OCO3)[nH]1)c1ncc(CO)s1 (stereo not shown)	viral replication		ELISA	MT2			4.5 µM
O=C(Nc1ccccc1CO)c1ccccc1Oc1ccc([N+](=O)[O-])cc1	viral replication			MT4		7 days	15.6 µM
CC(C)CN(C[C@@H](O)[C@H](Cc1ccccc1)NC(=O)O[C@H]1CCOC1)S(=O)(=O)c1ccc(N)cc1	viral replication			MT2	IIIB	5 days	0.0503 µM
COc1ccc(-c2ccc3c(-c4ccc(F)cc4F)cn(C)c3n2)cc1	cell growth or viability		MTT	TZM-bl		48 h	49.3 µM
CN(C)CCCn1c(=O)c2ccc3c(=O)n(CCCN(C)C)c(=O)c4c5[nH]c6cc(C(=O)O)ccc6[nH]c5c(c1=O)c2c34	viral replication			TZM-bl	NL43	48 h	0.975 µM
COc1ccc(COc2ccccc2C(=O)Nc2ccccc2OC)cc1	viral replication			MT4		7 days	> 100 µM
Cn1cc(-c2ccc(F)cc2)c2ccc(Cl)nc21	cell growth or viability		MTT	TZM-bl		48 h	5.53 µM
Cc1nc(C(NC(=O)c2ccc(-c3ccc4c(c3)OCO4)[nH]2)C(C)(C)N)sc1CO (stereo not shown)	viral replication		ELISA	MT2			2.3 µM
CN(C)CCCNc1cc2c(=O)n(CCCN(C)C)c(=O)c3c4[nH]c5ccccc5[nH]c4c4c(=O)n(CCCN(C)C)c(=O)c1c4c23	viral replication			TZM-bl	NL43	48 h	0.814 µM
Cc1ccc(-c2cn(C)c3nc(Cl)ccc23)cc1	cell growth or viability		MTT	TZM-bl		48 h	25.3 µM
COc1ccccc1C(=O)Nc1ccccc1Oc1ccc([N+](=O)[O-])cc1	viral replication			MT4		7 days	26.3 µM
O=c1c(O)c(-c2cc(O)c(O)c(O)c2)oc2cc(O)cc(O)c12	viral replication	inhibitor		TZM-bl	NL43	48 h	3.11 µM
COc1ccccc1NC(=O)c1ccccc1OCc1cccc([N+](=O)[O-])c1	viral replication			MT4		7 days	> 100 µM
CNCC(NC(=O)c1ccc(-c2ccc3c(c2)OCO3)[nH]1)c1ncc(CO)s1 (stereo not shown)	viral replication		ELISA	MT2			7.5 µM
COc1ccccc1S(=O)(=O)Nc1ccccc1Sc1ccc(N)cc1	viral replication			MT4		7 days	21 µM
Cn1cc(-c2ccccc2)c2ccc(-c3cc(C(F)(F)F)cc(C(F)(F)F)c3)nc21	cell growth or viability		MTT	TZM-bl		48 h	> 200 µM

Excerpt of the above:
Structure (SMILES)	read-out	mode	technique	cell line	strain	time	IC50
Cn1cc(-c2ccccc2)c2ccc(-c3ccsc3)nc21	cell growth or viability		MTT	TZM-bl		48 h	> 200 µM
O=C(O)c1cc(O)c(O)c(O)c1	viral replication			TZM-bl	BAL	48 h	6.08 µM
